Results collected from several papers.
Values joined by “and” are separate records of one study, mostly repeats; a detail may differ. ± gives the spread as reported.
Voltage-dependent P/Q-type calcium channel subunit alpha-1A: Voltage-dependent P/Q-type calcium channel subunit alpha-1A (Homo sapiens, UniProt O00555)
GABBR1: Gamma-aminobutyric acid type B receptor subunit 1 (GABBR1, Homo sapiens, UniProt Q9UBS5)
PIK3CA with p85 alpha: Phosphatidylinositol 4,5-bisphosphate 3-kinase catalytic subunit alpha isoform, with p85 alpha (PIK3CA, Homo sapiens, UniProt P42336)
gag-pol reverse transcriptase: Gag-Pol polyprotein, reverse transcriptase (gag-pol, Human immunodeficiency virus 1, UniProt P03366)
ACTA1 pyrene-labeled: Actin, alpha skeletal muscle, pyrene-labeled (ACTA1, Oryctolagus cuniculus, UniProt P68135)
HTR4 isoform 5-HT4e: 5-hydroxytryptamine receptor 4, isoform 5-HT4e (HTR4, Homo sapiens, UniProt Q13639)

The inhibition of `Cn1cc(-c2cccc(N3CCc4c(sc5c4CC(C)(C)C5)C3=O)c2CO)cc(Nc2ccncn2)c1=O` is reported as 21% (Proto-oncogene tyrosine-protein kinase Src, N1 isoform (SRC, Homo sapiens, UniProt P12931); kinase activity, inhibitor, SelectScreen kinase profiling; 1 µM, together with: ATP at apparent Km).
`CCN(C)C(=O)Oc1cccc([C@H](C)N(C)C)c1` has an inhibition of 0% (Voltage-dependent P/Q-type calcium channel subunit alpha-1A; ion current, antagonist; HEK293; 10 µM).
For `Cn1cccc1-c1cccnc1`, the inhibition was -17.2% (DRD1 (Homo sapiens, UniProt P21728); binding; 50 µM).
With `CC(C)N1CCC[C@H]1CNC(=O)c1cn(C2CCCC2)c(=O)c2c1c1ccccc1n2C` the inhibition was -2% (GABBR1; radioligand binding; 10 µM).
With `CCCCCCCCCCCCOS(=O)(=O)[O-].[Na+]` the inhibition was 75% (Envelope glycoprotein gp160, gp41 hydrophobic pocket (env, Human immunodeficiency virus type 1 group M subtype B, UniProt P04578); competitive fluorescence recovery; 20 µM).
The inhibition of `CN(C(=O)n1cnc(-c2ccc[n+]([O-])c2)c1)C1CCCCC1` is reported as 1% (GABBR1; radioligand binding; 10 µM, together with: [3H]CGP-54626).
`NC/C(=C\F)COc1cccc(Cn2c(=S)[nH]c(=O)c3[nH]cnc32)c1` has an inhibition of less than 50% (rat NMDA receptor; radioligand binding; 10 µM, phencyclidine site).
With `O=C(Nc1cnccc1Cl)N1CCN(Cc2ccc3c(c2)OC(F)(F)O3)CC1` the inhibition was 9% and 3% (ADRB3 (Homo sapiens, UniProt P13945); radioligand binding; concentration not given).
`Cc1ncc(C)n2nc(/C=C/c3nc(N4CCCC4)cc(N4CCOCC4)n3)nc12` has an inhibition of 4% (PCP receptor; binding; 10 µM).
`C#Cc1n[nH]c2c(-c3cn([C@@H](C)c4ccccc4)c(=O)[nH]c3=O)cc(F)cc12` gave an inhibition of -10.7% (PIK3CA with p85 alpha; kinase activity, inhibitor; 100 nM).
With `COc1cc(Nc2ncc(F)c(Nc3ccc4c(n3)NC(=O)C(C)(C)O4)n2)cc(OC)c1OC` the inhibition was 69% (RAF1 (Homo sapiens, UniProt P04049); KINOMEscan; 10 µM).
`CC(C)[C@@H](O)CC[C@@H](C)[C@H]1CC[C@H]2[C@@H]3CC=C4C[C@@H](O)CC[C@]4(C)[C@H]3CC[C@]12C` has an inhibition of 52 ± 1.7% (Glutamate NMDA receptor; GRIN1/GRIN2A (Homo sapiens, UniProt Q05586+Q12879); proton inhibition of current, two-electrode voltage clamp; Xenopus oocytes; concentration not given, current ratio pH 6.8 over pH 7.6, together with: positive allosteric modulator 10 µM).
`O=C1CSC(c2c(F)cccc2Cl)N1c1nc(-c2ccc(S(=O)(=O)N3CCCC3)cc2)cs1` (stereo not drawn) has an inhibition of 10.6% (gag-pol reverse transcriptase; 4 µM).
`C/C1=C/C(=O)O[C@@H]2C[C@@H](CC[C@H](C)/C=C\C=C\CC1)O[C@@](O)([C@@H]1CSC(=O)N1CO)C2` has an inhibition of 35% (ACTA1 pyrene-labeled; actin polymerization, pyrene actin; 0.1 µM; relative to: vehicle).
With `O=c1ccc2ccccc2o1` the inhibition was 1.37% (central benzodiazepine receptor; radioligand binding; 10 µM).
With `CO[C@]1([C@@H]2CSC(=O)N2C2CCCC2)C[C@H]2C[C@@H](CC[C@H](C)/C=C\C=C\CC/C(C)=C\C(=O)O2)O1` the inhibition was 20% (ACTA1 pyrene-labeled; actin polymerization, pyrene actin; 0.1 µM; relative to: vehicle).
The inhibition of `CN1CCN(c2nc(N)c3ccccc3n2)CC1` is reported as 1.8% (HTR4 isoform 5-HT4e; radioligand binding; 0.1 µM).
`CCN(Cc1ccccc1C(F)(F)F)C(=O)C1CCN(S(=O)(=O)c2ccc3[nH]ncc3c2)CC1` has an inhibition of 1% (rat central GABAA receptor; radioligand binding; 10 µM, together with: flunitrazepam).
`O=C(Nc1cccnn1)N1CCN([C@@H]2CCOc3cc(C(F)(F)F)ccc32)CC1` has an inhibition of 10% (HTR4 isoform 5-HT4e; Cerep BioPrint; 20 µM, human 5-HT4e).
`Nc1ccncc1` has an inhibition of 26% (Voltage-dependent P/Q-type calcium channel subunit alpha-1A; antagonist; 30 µM).
For `O=C1CSC(c2ccc(Br)cc2)N1c1nc(-c2ccc(S(=O)(=O)N3CCCC3)cc2)cs1` (stereo not drawn), the inhibition was 9.12% (gag-pol reverse transcriptase; 4 µM).
For `C/C1=C/C(=O)O[C@@H]2C[C@@H](CC[C@H](C)/C=C\C=C\CC1)O[C@@](OCCc1ccccc1)([C@@H]1CSC(=O)N1)C2`, the inhibition was 94% (ACTA1 pyrene-labeled; actin polymerization, pyrene actin; 1 µM; relative to: vehicle).
Under inhibition, `Clc1cccc(-c2c[nH]c3nccc(N4CCOCC4)c23)c1` is recorded as “inhibited” (STK3 (Homo sapiens, UniProt Q13188); kinase activity, inhibitor, PhosphoSens kinetic; concentration not given, 2 h, together with: ATP at Km).
`CCN1C(=O)SC[C@H]1[C@@]1(O)C[C@H]2C[C@@H](CC[C@H](C)/C=C\C=C\CC/C(C)=C\C(=O)O2)O1` gave an inhibition of 70% (ACTA1 pyrene-labeled; actin polymerization, pyrene actin; 1 µM; relative to: vehicle).
The inhibition of `CC[C@H](C)[C@H](NC(=O)[C@@H](NC(=O)[C@H](N)Cc1ccccc1)C(C)C)C(=O)N[C@@H](C)C(N)=O` is reported as 89% (APP (Homo sapiens, UniProt P05067); amyloid-beta aggregation, thioflavin T fluorescence; 1.0 µM, 48 h, together with: 2 µM amyloid-beta).
With `COc1cccc(C2SCC(=O)N2c2nc(-c3ccc(S(=O)(=O)N4CCCC4)cc3)cs2)c1` (stereo not drawn) the inhibition was 1.28% (gag-pol reverse transcriptase; 4 µM).
The inhibition of `CCN1C(=O)SCC1C1(OC)CC2CC(CCC(C)C=CC=CCCC(C)=CC(=O)O2)O1` (stereo not drawn) is reported as 18% (ACTA1 pyrene-labeled; actin polymerization, pyrene actin; 1 µM; relative to: vehicle).
For `c1ccc(C(NCCNC(c2ccccc2)c2ccccc2)c2ccccc2)cc1`, the inhibition was -8% (GABBR1; activity; 10 µM, Eurofins selectivity panel).
With `O=C1CSC(c2c(Cl)cccc2Cl)N1c1nc(-c2ccc(S(=O)(=O)N3CCCC3)cc2)cs1` (stereo not drawn) the inhibition was 14.7% (gag-pol reverse transcriptase; 4 µM).
For `C#Cc1n[nH]c2c(-c3cn([C@@H](C)c4ccccn4)c(=O)[nH]c3=O)cc(F)cc12`, the inhibition was -6.2% (PIK3CA with p85 alpha; kinase activity, inhibitor; 100 nM).
For `CN1CCN(c2cc(-c3ccncc3)c(-c3ccc4ccccc4c3)nn2)CC1`, the inhibition was -28% (HCAR2 (Homo sapiens, UniProt Q8TDS4); antagonist, FLIPR; 10 µM).
The inhibition of `CN(CCN1CCC(OC(=O)Nc2ccccc2-c2ccccc2)CC1)C(=O)c1ccc(CN2CCC(C(N)=O)CC2)cc1` is reported as -3% (rat NMDA receptor; radioligand binding; 1 µM, together with: [3H]CGP39653 5.0 nM).
`O=C1CSC(c2cccc(Cl)c2)N1c1cccc(S(=O)(=O)Nc2nccs2)c1` (stereo not drawn) has an inhibition of 65.1% (gag-pol reverse transcriptase; 4 µM).
With `COc1ccc(N2C(=O)N(c3c(C)cccc3Cl)Cc3cnc(Nc4ccc(C5CCN(C)CC5)cc4OC)nc32)nc1` the inhibition was 5% (MAPKAPK2 (Homo sapiens, UniProt P49137); kinase activity; 0.5 µM).
`O=C1CSC(c2cccc(Cl)c2)N1c1nc(-c2ccc(S(=O)(=O)N3CCOCC3)cc2)cs1` (stereo not drawn) has an inhibition of 72.3% (gag-pol reverse transcriptase; 4 µM).
With `O=C(Nc1cccnn1)N1CCC(=Cc2cccc(Oc3ccc(C(F)(F)F)cn3)c2)CC1` the inhibition was 17% (CCKAR (Homo sapiens, UniProt P32238); binding; 50 µM, together with: [3H]L-364,718).

A few entries again:
For `O=C1CSC(c2ccc(Br)cc2)N1c1nc(-c2ccc(S(=O)(=O)N3CCCC3)cc2)cs1` (stereo not drawn), the inhibition was 9.12% (gag-pol reverse transcriptase; 4 µM).
For `C/C1=C/C(=O)O[C@@H]2C[C@@H](CC[C@H](C)/C=C\C=C\CC1)O[C@@](OCCc1ccccc1)([C@@H]1CSC(=O)N1)C2`, the inhibition was 94% (ACTA1 pyrene-labeled; actin polymerization, pyrene actin; 1 µM; relative to: vehicle).
Under inhibition, `Clc1cccc(-c2c[nH]c3nccc(N4CCOCC4)c23)c1` is recorded as “inhibited” (STK3 (Homo sapiens, UniProt Q13188); kinase activity, inhibitor, PhosphoSens kinetic; concentration not given, 2 h, together with: ATP at Km).
`CCN1C(=O)SC[C@H]1[C@@]1(O)C[C@H]2C[C@@H](CC[C@H](C)/C=C\C=C\CC/C(C)=C\C(=O)O2)O1` gave an inhibition of 70% (ACTA1 pyrene-labeled; actin polymerization, pyrene actin; 1 µM; relative to: vehicle).
The inhibition of `CC[C@H](C)[C@H](NC(=O)[C@@H](NC(=O)[C@H](N)Cc1ccccc1)C(C)C)C(=O)N[C@@H](C)C(N)=O` is reported as 89% (APP (Homo sapiens, UniProt P05067); amyloid-beta aggregation, thioflavin T fluorescence; 1.0 µM, 48 h, together with: 2 µM amyloid-beta).
With `COc1cccc(C2SCC(=O)N2c2nc(-c3ccc(S(=O)(=O)N4CCCC4)cc3)cs2)c1` (stereo not drawn) the inhibition was 1.28% (gag-pol reverse transcriptase; 4 µM).
